Published values collected from several papers.
Compare with care: the assays were run in different laboratories. Values joined by “and” are separate records of one study, mostly repeats; a detail may differ. ± gives the spread as reported.

| SMILES | test system | conditions | Cmax |
| --- | --- | --- | --- |
| CC(C)(Sc1ccncc1-c1ccc(C#N)c2ccccc12)C(=O)O | human, plasma | oral, 5 mg once daily, together with: febuxostat 10 mg | 11 ng/mL |
| NC1(C(=O)N[C@@H](CCO)c2ccc(Cl)cc2)CCN(c2nc[nH]c3nccc2-3)CC1 | human patients, plasma | dose not given, cohort 160/320, cycle 0, geometric mean | 530 ng/mL |
| CC(C)c1nc(N(C)S(C)(=O)=O)nc(-c2ccc(F)cc2)c1/C=C/[C@@H](O)C[C@@H](O)CC(=O)O | human, plasma | oral, 10 mg, given alone | 2.2 ng/mL |
| C[C@H](CCC(=O)NCC(=O)O)[C@H]1CC[C@H]2[C@@H]3CC[C@@H]4C[C@H](O)CC[C@]4(C)[C@H]3CC[C@]12C | human, plasma | concentration not given, endogenous control diurnal | 85.9 ± 24 nM |
| C[C@H]1[C@@H](O)O[C@@H]2O[C@@]3(C)CC[C@H]4[C@H](C)CC[C@@H]1[C@@]24OO3 | human, both sexes, plasma | oral, dose not given, non-fixed combination | 745 ng/mL |
| Cc1cccc(F)c1N1CCC(N2Cc3cn(CC(C)(F)F)nc3N(Cc3ccccc3C(F)(F)F)C2=O)CC1 | human healthy males, plasma | oral, 100 mg, single dose, fed, geometric mean | 1020 ng/mL |
| Cc1cc(Nc2cc3ncccc3c(N[C@@H]3C[C@H]4CC[C@@H](C3)N4CCC#N)n2)n[nH]1 | human, plasma | 20 mg, day 1, geometric mean | 0.2 ng/mL |
| Cn1cncc1[C@@](N)(c1ccc(Cl)cc1)c1ccc2c(c1)c(-c1cccc(Cl)c1)cc(=O)n2C | human patients | oral, 300 mg/m2, first dose, cycle 1, expanded cohort, median | 1470 ng/mL |
| CN(C)CCC[C@@]1(c2ccc(F)cc2)OCc2cc(C#N)ccc21 | human | intramuscular, dose not given | 52.2 ng/mL |
| CN(CC#N)C(=O)C[C@H](Nc1nc2ccccc2[nH]1)c1cccc(C(F)(F)F)c1 | human | intravenous infusion, 4 mg/kg, 1 mg/mL formulation | 8030 ± 999 ng/mL |
| O=C(NCCN1CCCC1)c1cc(-c2ccc(CN3CCOCC3)cc2)nc2ccc(F)cc12 | human, whole blood | oral, 1250 mg | 1140 ng/mL and 1560 ng/mL |
| COc1cc(Nc2c(C#N)cnc3cc(OCCCN4CCN(C)CC4)c(OC)cc23)c(Cl)cc1Cl | human severe hepatic impairment, plasma | concentration not given, single dose geometric mean | 49 ng/mL |
| CN(C)C(=O)c1cc2cnc(Nc3ccc(N4CCNCC4)cn3)nc2n1C1CCCC1 | human, expansion cohort, plasma | oral, 800 mg, day 14, together with: gemcitabine 1000 mg/m^2 | 3340 ± 1780 ng/mL |
| COc1ccc2[nH]c([S@+]([O-])Cc3ncc(C)c(OC)c3C)nc2c1 | human, dried blood spots | oral, 10 mg omeprazole, together with: fluvoxamine | 197 ng/mL |
| Nc1ccc(-c2nc([C@H]3CCc4cc(-c5cc(Cl)ccc5-n5cnnn5)cc(=O)n43)c(F)[nH]2)c(F)n1 | human, plasma | oral, 80 mg once daily, day 1 | 553 ng/mL |
| CC1(COc2ccc3c(c2)ncn3-c2ccc3cccc(N4CCC(N)CC4)c3n2)COC1 | human patients, recurrent/progressive HGG or DIPG, serum | oral, 170 mg/m^2, day 28, median | 1650 nM |
| Cc1cc(-c2nccc3c2ccn3CC(=O)Nc2ccc(-c3cnccn3)cn2)ccn1 | human, plasma | oral, 7 mg single dose, total | 57 nM |
| CN1CC[C@@H](NC(=O)Nc2ccc(C#N)cc2)C[C@@H]1c1nc2ccccc2[nH]1 | human | oral, 100 mg once daily, induction cycle day 10, given alone | 1180 ng/mL |
| CCc1nc(C(N)=O)c(Nc2ccc(N3CCC(N4CCN(C)CC4)CC3)c(OC)c2)nc1NC1CCOCC1 | human patients | oral, 450 mg once daily, cycle 1 day 15 | 1530 ng/mL |
| CC(C)=CCC/C(C)=C/CC/C(C)=C/CC[C@@](C)(O)CCC1=C(C)C(=O)C(C)=C(C)C1=O | healthy human, plasma | oral, 400 mg, single dose, alone | 1330 ng/mL |

Some of these lines once more:
| SMILES | test system | conditions | Cmax |
| --- | --- | --- | --- |
| COc1cc(Nc2c(C#N)cnc3cc(OCCCN4CCN(C)CC4)c(OC)cc23)c(Cl)cc1Cl | human severe hepatic impairment, plasma | concentration not given, single dose geometric mean | 49 ng/mL |
